Measured values of several laboratories.
Compare with care: the assays were run in different laboratories. ± marks the error that the study gave.
Method: steady-state kinetics
B1: MMP2 (Homo sapiens, UniProt P08253); chain YNFFPRKPKWDKNQITYRIIGYTPDLDPETVDDAFARAFQVWSDVTPLRFSRIHDGEADIMINFGRWEHGDGYPFDGKDGLLAHAFAPGTGVGGDSHFDDDELWTLGEGQVVRVKYGNADGEYCKFPFLFNGKEYNSCTDTGRSDGFLWCSTTYNFEKDGKYGFCPHEALFTMGGNAEGQPCKFPFRFQGTSYDSCTTEGRTDGYRWCGTTEDYDRDKKYGFCPETAMSTVGGNSEGAPCVFPFTFLGNKYESCTSAGRSDGKMWCATTANYDDDRKWGFCPDQGYSLFLVAAHEFGHAMGLEHSQDPGALMAPIYTYTKNFRLSQDDIKGIQELYGASPDIDLGTGPTPTLGPVTPEICKQDIVFDGIAQIRGEIFFFKDRFIWRTVTPRDKPMGPLLVATFWPELPEKIDAVYEAPQEEKAVFFAGNEYWIYSASTLERGYPKPLTSLGLPPDVQRVDAAFNWSKNKKTYIFAGDKFWRYNEVKKKMDPGFPKLIADAWNAIPDNLDAVVDLQGGGHSYFFKGAYYLKLENQSLKSVKFGSIKSDWLGC
B2: PRODH2 157-515 (Homo sapiens, UniProt Q9UF12); chain YGQFVAGETAEEVKGCVQQLRTLSLRPLLAVPTEEEPDSAAKSGEAWYEGNLGAMLRCVDLSRGLLEPPSLAEASLMQLKVTALTSTRLCKELASWVRRPGASLELSPERLAEAMDSGQNLQVSCLNAEQNQHLRASLSRLHRVAQYARAQHVRLLVDAEYTSLNPALSLLVAALAVRWNSPGEGGPWVWNTYQACLKDTFERLGRDAEAAHRAGLAFGVKLVRGAYLDKERAVAQLHGMEDPTQPDYEATSQSYSRCLELMLTHVARHGPMCHLMVASHNEESVRQATKRMWELGIPLDGTVCFGQLLGMCDHVSLALGQAGYVVYKSIPYGSLEEVIPYLIRRAQENRSVLQGARRE
B3: HCT R356E (Coleus scutellarioides, UniProt E8ZAP2); chain MKIHVRDSTLVRPSAATPAVSLWNSNVDLVVPNFHTPSVYFYRPSGADNFFDTAVMKAALGRALVSFYPMAGRLKRDEDGRVEIDCNAEGVLFVEAESDGTVDDYGDFAPSLELRRLIPAVDYSQGISAYPLLVLQVTFFKCGGVSLGVGMQHHAADGFSGLHFINTWSDMARGLDITLPPFIDRTLLSARDPPQPQFKHVEYQPPPAMKTYEPAETVVSIFKLTKDQLTTLKAKSKEDGNTTTYSSYEMLSGHVWRCTCLARGLPEEQETKLYIATDGRSRLQPQLPPGYFGNVIFTATPLAVAGDLGSKPVWYAASKIHDALARMDNDYLRSALDFLELQPDLKALVRGAHTFECPNLGITSWVRLPIHDADFGWGRPIFMGPGGIAYEGLSFVLPSPTNDGSLSVAISLQAEHMKLFEKLLYQI
B4: vioC (Streptomyces vinaceus, UniProt Q6WZB0); chain MTESPTTHHGAAPPDSVATPVRPWSEFRLTPAEAAAAAALAARCAQRYDETDGPEFLLDAPVIAHELPRRLRTFMARARLDAWPHALVVRGNPVDDAALGSTPVHWRTARTPGSRPLSFLLMLYAGLLGDVFGWATQQDGRVVTDVLPIKGGEHTLVSSSSRQELGWHTEDAFSPYRADYVGLLSLRNPDGVATTLAGVPLDDLDERTLDVLFQERFLIRPDDSHLQVNNSTAQQGRVEFEGIAQAADRPEPVAILTGHRAAPHLRVDGDFSAPAEGDEEAAAALGTLRKLIDASLYELVLDQGDVAFIDNRRAVHGRRAFQPRYDGRDRWLKRINITRDLHRSRKAWAGDSRVLGQR
B5: Tcur_2987 W263S (Thermomonospora curvata, UniProt D1A807); chain ACSEERAAGARPSATQTTGTATEPFHGPHQAGIATPPQAHAVFLGLDLRKGTGRKELGRLMRLLTDDARRLTQGRPALADPEPDLAPLPSRLTFTFGFGPGLFKAAGLEKQRPEGLRPLPPFKVDRLEDRWSGGDLLVQICCDDPITLAHALRMTVKDARAFTRVRWVQRGFRRSPGVQSSGATQRNLMGQLDGTVNPVPGTADFDQAVWVQDGPEWLRGGTTLVLRRIRMELEKSDEADPAGKEFAVGRRLTSGAPLTGRHEHDEPDFDAVDSAGFPVIAENAHIRLAHVDSPRLRMLRRPYNYDEGLTADGRSDAGLLFAAYQADIDRQFIPVQRRLDEGGDLLNLWTTPIGSAVFAIPPGCDENGWIGQGLLG
B6: onr (Enterobacter cloacae, UniProt P71278); chain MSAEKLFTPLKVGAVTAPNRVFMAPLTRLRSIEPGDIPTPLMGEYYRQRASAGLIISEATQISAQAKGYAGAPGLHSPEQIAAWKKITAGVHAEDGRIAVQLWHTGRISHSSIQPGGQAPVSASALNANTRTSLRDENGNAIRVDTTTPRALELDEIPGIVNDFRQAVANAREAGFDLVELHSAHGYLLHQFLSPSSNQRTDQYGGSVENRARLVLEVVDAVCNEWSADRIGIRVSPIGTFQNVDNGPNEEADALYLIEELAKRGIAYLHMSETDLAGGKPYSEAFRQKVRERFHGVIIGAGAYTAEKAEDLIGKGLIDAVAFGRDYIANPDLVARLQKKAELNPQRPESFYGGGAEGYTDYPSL
UniProt Q7L266, sequence (whole entry, looked up): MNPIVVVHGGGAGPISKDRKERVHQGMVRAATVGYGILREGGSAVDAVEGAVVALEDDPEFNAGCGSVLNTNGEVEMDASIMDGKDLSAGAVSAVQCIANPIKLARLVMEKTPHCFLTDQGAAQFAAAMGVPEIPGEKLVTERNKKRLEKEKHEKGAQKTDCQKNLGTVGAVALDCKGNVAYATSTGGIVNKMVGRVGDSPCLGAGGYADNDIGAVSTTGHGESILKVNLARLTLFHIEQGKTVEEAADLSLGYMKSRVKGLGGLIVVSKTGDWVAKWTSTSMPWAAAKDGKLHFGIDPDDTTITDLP
UniProt Q47898, sequence (whole entry, looked up): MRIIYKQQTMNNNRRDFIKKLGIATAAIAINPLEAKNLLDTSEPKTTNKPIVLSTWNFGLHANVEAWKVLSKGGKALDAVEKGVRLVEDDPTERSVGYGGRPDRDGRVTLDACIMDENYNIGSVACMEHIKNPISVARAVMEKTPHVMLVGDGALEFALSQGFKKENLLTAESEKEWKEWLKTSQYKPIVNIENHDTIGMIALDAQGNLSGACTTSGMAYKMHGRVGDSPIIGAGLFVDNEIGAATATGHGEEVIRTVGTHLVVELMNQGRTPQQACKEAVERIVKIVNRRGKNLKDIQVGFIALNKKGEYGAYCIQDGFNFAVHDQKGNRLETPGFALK

`B1 (MMP2)` gave a kcat/Km of 18000 M⁻¹ s⁻¹ (CC(=O)N[C@@H](CCC(N)=O)C(=O)N1CCC[C@H]1C(=O)N[C@@H](CCC(N)=O)C(=O)NCC(=O)N[C@@H](CC(C)C)C(=O)N[C@@H](C)C(=O)N[C@@H](CCCCN)C(N)=O).
The kcat/Km of `putA (Bradyrhizobium diazoefficiens, UniProt Q89E26)` is reported as 8100 ± 822 M⁻¹ s⁻¹ (O=C(O)[C@@H]1CCC=N1; pH 7.5, 23 °C).
`enzyme (Elizabethkingia miricola, UniProt Q47898)` has a kcat/Km of 160000 M⁻¹ s⁻¹ (CC(=O)N[C@@H]1[C@@H](O)[C@H](O)[C@@H](CO)O[C@H]1NC(=O)C[C@H](N)C(=O)O; pH 7.5, 37 °C).
For `B2 (PRODH2 157-515)`, the kcat/Km was 0.93 ± 0.05 M⁻¹ s⁻¹ (O=C(O)[C@@H]1C[C@@H](O)CN1; pH 7.5, 25 °C, with: CoQ1 electron acceptor 200 µM).
With `B3 (HCT R356E)` the kcat/Km was 24.3 ± 0.6 M⁻¹ s⁻¹ (NCCc1ccc(O)c(O)c1; pH 8, pseudo-first-order, with: p-coumaroyl CoA).
With `B4 (vioC)` the kcat/Km was 1970 ± 785 M⁻¹ s⁻¹ (N=C(N)NCCCC[C@H](N)C(=O)O; pH 8, 30 °C, with: alpha-ketoglutarate 1.0 mM).
With `B5 (Tcur_2987 W263S)` the kcat/Km was 1.6e+06 M⁻¹ s⁻¹ (Nc1c(S(=O)(=O)O)cc(Nc2cccc(S(=O)(=O)CCOS(=O)(=O)O)c2)c2c1C(=O)c1ccccc1C2=O; pH 3, sigmoidal kinetics, with: H2O2 1 mM).
With `ASRGL1 (Homo sapiens, UniProt Q7L266)` the kcat/Km was 2000 ± 300 M⁻¹ s⁻¹ (NC(=O)C[C@H](N)C(=O)O; pH 7.4, 37 °C, NaCl 100 mM).
For `B6 (onr)`, the kcat/Km was 9000 M⁻¹ s⁻¹ (CC(C)=CCC/C(C)=C/C=O; pH 7, 25 °C, apparent, anaerobic, with: NADPH 100 µM).

Some of these lines once more:
For `B2 (PRODH2 157-515)`, the kcat/Km was 0.93 ± 0.05 M⁻¹ s⁻¹ (O=C(O)[C@@H]1C[C@@H](O)CN1; pH 7.5, 25 °C, with: CoQ1 electron acceptor 200 µM).
